Results gathered from unrelated publications.
Each numbered part is a random draw from the data of one study; scales do not carry over between parts.

Study 1
Target: Sal-like protein 4, full length isoform A (SALL4, Homo sapiens, UniProt Q9UJQ4, residues 1-1053)
Sequence of UniProt Q9UJQ4 (whole entry, looked up): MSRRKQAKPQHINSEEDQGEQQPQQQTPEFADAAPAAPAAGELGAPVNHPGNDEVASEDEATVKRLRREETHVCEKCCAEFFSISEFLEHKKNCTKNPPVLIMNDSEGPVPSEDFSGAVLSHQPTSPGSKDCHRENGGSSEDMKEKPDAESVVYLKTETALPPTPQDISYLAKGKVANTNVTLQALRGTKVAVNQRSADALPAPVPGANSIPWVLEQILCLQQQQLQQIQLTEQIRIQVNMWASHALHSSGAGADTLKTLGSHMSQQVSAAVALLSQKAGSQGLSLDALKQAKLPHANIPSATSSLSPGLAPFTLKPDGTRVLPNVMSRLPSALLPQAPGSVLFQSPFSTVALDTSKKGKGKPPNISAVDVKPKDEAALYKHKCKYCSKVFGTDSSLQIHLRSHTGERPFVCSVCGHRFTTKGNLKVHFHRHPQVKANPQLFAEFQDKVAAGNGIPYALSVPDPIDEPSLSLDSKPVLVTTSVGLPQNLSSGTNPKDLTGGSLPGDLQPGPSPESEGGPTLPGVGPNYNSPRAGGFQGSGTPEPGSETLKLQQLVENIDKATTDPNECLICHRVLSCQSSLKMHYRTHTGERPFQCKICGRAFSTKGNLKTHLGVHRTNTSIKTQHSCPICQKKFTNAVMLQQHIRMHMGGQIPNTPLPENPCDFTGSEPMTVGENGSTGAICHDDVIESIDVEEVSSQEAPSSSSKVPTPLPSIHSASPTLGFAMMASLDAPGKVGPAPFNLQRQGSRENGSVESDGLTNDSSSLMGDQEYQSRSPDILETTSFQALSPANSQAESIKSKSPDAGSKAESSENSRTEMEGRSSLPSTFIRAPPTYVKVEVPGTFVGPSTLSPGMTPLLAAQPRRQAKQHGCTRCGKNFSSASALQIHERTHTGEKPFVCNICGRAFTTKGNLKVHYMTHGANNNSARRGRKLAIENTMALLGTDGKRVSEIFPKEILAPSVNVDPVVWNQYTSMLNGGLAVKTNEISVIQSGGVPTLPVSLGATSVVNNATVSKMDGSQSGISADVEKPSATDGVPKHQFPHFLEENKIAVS
Technique: universal PBM
Form: double-stranded DNA, one strand shown
Matrix: in vitro
Concentration: 600 nM
Setting: 8-mer, flanks averaged, mean of replicates
Direction: higher = stronger binding
Strand | E-score
AAAGGGGT | -0.054
GGGTAGTA | -0.0885
AGACTATC | 0.00817
TCGACCCA | -0.134

Study 2
Target: Interferon regulatory factor 7, full length, phosphomimetic (IRF7, Homo sapiens, UniProt Q92985, residues 1-503, S101K/S471D/S472D/S475D/S476D/S477D/S483D/S484D/S487D)
Sequence of UniProt Q92985 (whole entry, unmodified, looked up): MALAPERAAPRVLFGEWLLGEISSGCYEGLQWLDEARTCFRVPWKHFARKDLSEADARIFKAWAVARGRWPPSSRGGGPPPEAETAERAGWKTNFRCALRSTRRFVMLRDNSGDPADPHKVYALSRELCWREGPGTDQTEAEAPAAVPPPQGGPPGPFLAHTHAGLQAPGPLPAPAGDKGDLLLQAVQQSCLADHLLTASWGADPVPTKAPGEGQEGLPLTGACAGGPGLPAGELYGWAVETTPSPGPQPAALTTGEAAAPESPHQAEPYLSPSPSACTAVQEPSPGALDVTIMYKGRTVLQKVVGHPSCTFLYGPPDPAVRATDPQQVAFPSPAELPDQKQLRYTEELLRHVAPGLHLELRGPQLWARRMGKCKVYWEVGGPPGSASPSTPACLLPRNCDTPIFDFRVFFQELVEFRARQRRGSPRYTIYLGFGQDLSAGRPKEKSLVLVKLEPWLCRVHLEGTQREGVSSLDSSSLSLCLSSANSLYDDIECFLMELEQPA
Technique: protein-binding microarray
Form: double-stranded DNA, one strand shown
Matrix: in vitro
Concentration: 250 nM
Setting: 60-bp whole probe
Added: salmon DNA 0.4 mg/ml
Relative to: random background probes
Direction: higher = stronger binding
Strand | log fluorescence [z-score]
GCCTAGCACCATATTCTCTTCTTGCATCTGTGCTAGGTCTTGATTCGCTTGACGCTGCTG | 2.28
GCCTAGCACATAAAAGAACTCCTGGGGGAGTGCTAGGTCTTGATTCGCTTGACGCTGCTG | 0.0372
GCCTAGCACTCAGGTTCCCTTTTCCTTTAGTGCTAGGTCTTGATTCGCTTGACGCTGCTG | 3.91

Other studies, line by line
Substance | target | assay | system | setting | how to read | measurement | result
ATTCAGAG | Histone acetyltransferase KAT6A, winged helix 2, GST fusion (KAT6A, Homo sapiens, UniProt Q92794, residues 85-181) | protein binding microarray | double-stranded DNA, one strand shown, in vitro | not given, 8-mer, flanks averaged, mean of 2 arrays, mostly near background | relative to: not given, higher = stronger binding | E-score | -0.00677
PhoQ, residues 284 288 289 292 302 303 SLKLQV | PhoP, residues 12 14 15 18 19 TQALL (Escherichia coli, UniProt P23836) | Sort-seq, refers to: YFP reporter | E. coli | PhoQ-PhoP variant library, added: 10 µM Mg2+ | relative to: high Mg2+ state, higher = stronger signaling | fold induction | 13.3

Excerpt of the above (other studies, line by line):
Substance | target | assay | system | setting | how to read | measurement | result
PhoQ, residues 284 288 289 292 302 303 SLKLQV | PhoP, residues 12 14 15 18 19 TQALL (Escherichia coli, UniProt P23836) | Sort-seq, refers to: YFP reporter | E. coli | PhoQ-PhoP variant library, added: 10 µM Mg2+ | relative to: high Mg2+ state, higher = stronger signaling | fold induction | 13.3
